Literature values that unrelated publications cite.
Each line is one published result; not all experiments were run side by side. “And” joins repeats or separate records; there may be more than shown. Numbers after ± are the reported error.

Structure (SMILES) | target or system | assay | test system | setting | quantity | result
CCC(C)NC(=O)CSc1nnc(Nc2ccc(C(C)C)cc2)s1 (centres unmarked) |  |  | human plasma |  | half-life | > 1.67 h
CCN1CCN(Cc2ccc(Nc3cc(-c4cc(F)c5nc(C)n(C(C)C)c5c4)ccn3)nn2)CC1 | CDK4/6 | kinase activity, inhibitor |  |  | IC50 | 0.026 µM
c1ccc(C(CCn2ccnc2)(c2ccccc2)c2ccccc2)cc1 | CYP125 Mycobacterium tuberculosis |  |  |  | Kd | 13.1 ± 0.9 µM
Cc1cccc(C2NC(=O)c3c(Cl)cccc3N2)c1 (racemic) | SMARCA4 bromodomain | DSF and ITC |  | concentration not given, racemate | binding | no binding
CNC1=NC(=O)/C(=C/c2ccc3ncccc3c2)S1 | CDK4/6 | kinase activity, inhibitor |  |  | IC50 | 35 µM
c1ccc(CCN2CCN(c3cc(N4CCCC4)nc(N4CCCC4)n3)CC2)cc1 | caspase-5 | inhibitor |  | range shared with caspase-1 | Ki | 0.008 to 0.016 µM
CC(=O)Nc1ncc(SCc2ncc(C(C)(C)C)o2)s1 | CDK4/6 | kinase activity, inhibitor |  |  | IC50 | 0.00426 µM
CC(=O)NCCCC[C@H](NC(=O)CNC(=O)[C@H](CC(C)C)NC(C)=O)C(=O)Nc1ccc2c(C)cc(=O)oc2c1 | human HDAC2 | substrate |  |  | Km | 3 µM
C/C=C/Cn1c(Cc2cc(OC)c(OC)c(OC)c2)nc2c(N)ncnc21 | Trap-1 | binding, fluorescence polarization competition |  |  | IC50 | 173 ± 7.3 µM
Nc1ccc(-c2cc(Cl)c(Cl)c3[nH]c4c(c23)CN(C(=O)CO)CC4)cn1 | cGAS mouse |  |  | concentration not given | inhibition | inactive
COc1ccccc1CNCCCCCCN1CCC(CCC2CCN(CCCCCCNCc3ccccc3OC)CC2)CC1 | human SSAO/VAP-1 |  |  | inactive as substrate or inhibitor | Ki | > 100 µM and 111 µM

For quick reference, copied from above:
Structure (SMILES) | target or system | assay | test system | setting | quantity | result
c1ccc(CCN2CCN(c3cc(N4CCCC4)nc(N4CCCC4)n3)CC2)cc1 | caspase-5 | inhibitor |  | range shared with caspase-1 | Ki | 0.008 to 0.016 µM
